Results of several laboratories.
Every numbered part comes from another study and shows a few of its results, in no order.
UniProt Q8NI60, sequence (whole entry, looked up): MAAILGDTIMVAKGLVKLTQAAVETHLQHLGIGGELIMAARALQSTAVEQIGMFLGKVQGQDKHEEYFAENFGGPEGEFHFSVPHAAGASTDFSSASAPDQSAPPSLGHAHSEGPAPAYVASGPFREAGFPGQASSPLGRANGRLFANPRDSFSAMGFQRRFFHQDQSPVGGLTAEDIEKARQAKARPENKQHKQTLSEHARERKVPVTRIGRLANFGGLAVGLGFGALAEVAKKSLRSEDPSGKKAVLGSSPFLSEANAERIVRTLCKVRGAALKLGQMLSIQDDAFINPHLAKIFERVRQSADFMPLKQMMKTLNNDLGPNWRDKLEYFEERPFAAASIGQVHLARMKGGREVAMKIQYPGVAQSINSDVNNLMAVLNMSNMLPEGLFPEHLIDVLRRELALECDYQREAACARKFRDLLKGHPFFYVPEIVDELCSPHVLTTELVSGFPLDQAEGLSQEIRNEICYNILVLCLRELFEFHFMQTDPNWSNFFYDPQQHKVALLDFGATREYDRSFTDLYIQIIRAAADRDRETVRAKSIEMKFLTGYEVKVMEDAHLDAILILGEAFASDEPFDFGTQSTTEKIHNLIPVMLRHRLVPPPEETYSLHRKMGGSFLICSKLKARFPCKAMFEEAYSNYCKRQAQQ
UniProt P54756, sequence (whole entry, looked up): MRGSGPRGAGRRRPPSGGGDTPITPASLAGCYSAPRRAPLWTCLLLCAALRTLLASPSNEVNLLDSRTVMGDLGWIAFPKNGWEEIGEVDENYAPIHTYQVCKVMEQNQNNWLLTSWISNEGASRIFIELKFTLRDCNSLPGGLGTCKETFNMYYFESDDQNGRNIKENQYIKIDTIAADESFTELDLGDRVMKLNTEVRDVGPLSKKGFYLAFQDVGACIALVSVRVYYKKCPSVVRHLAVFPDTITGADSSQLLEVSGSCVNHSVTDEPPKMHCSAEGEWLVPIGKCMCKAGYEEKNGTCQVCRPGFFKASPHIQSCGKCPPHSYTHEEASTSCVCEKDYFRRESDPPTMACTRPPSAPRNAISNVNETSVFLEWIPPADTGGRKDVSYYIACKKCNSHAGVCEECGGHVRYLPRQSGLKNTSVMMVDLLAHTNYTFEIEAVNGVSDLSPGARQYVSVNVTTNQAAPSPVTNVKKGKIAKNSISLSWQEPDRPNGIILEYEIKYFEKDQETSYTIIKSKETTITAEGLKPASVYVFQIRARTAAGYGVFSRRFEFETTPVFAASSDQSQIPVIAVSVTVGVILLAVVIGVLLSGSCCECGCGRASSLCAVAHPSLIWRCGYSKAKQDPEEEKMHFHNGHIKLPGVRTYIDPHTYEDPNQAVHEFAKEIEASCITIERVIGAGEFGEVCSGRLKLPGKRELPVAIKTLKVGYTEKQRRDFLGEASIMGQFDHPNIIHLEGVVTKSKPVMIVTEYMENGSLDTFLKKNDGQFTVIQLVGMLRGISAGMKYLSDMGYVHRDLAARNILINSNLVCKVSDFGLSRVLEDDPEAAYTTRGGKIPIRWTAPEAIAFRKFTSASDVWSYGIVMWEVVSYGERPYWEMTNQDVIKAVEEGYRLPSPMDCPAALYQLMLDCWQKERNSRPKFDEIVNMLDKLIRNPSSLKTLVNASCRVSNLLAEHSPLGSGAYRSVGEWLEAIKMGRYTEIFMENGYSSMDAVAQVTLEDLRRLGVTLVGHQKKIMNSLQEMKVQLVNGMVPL
UniProt P28482, sequence (whole entry, looked up): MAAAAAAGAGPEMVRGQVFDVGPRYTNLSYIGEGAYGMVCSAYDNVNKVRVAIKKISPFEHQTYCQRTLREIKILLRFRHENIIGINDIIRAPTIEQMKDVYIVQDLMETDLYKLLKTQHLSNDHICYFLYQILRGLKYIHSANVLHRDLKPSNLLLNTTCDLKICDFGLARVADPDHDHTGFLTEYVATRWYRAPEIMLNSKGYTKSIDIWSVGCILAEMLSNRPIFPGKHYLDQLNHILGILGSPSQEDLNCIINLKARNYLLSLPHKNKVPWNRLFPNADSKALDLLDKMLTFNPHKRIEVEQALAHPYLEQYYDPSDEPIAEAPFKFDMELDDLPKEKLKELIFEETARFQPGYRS
UniProt Q8TDC3, sequence (whole entry, looked up): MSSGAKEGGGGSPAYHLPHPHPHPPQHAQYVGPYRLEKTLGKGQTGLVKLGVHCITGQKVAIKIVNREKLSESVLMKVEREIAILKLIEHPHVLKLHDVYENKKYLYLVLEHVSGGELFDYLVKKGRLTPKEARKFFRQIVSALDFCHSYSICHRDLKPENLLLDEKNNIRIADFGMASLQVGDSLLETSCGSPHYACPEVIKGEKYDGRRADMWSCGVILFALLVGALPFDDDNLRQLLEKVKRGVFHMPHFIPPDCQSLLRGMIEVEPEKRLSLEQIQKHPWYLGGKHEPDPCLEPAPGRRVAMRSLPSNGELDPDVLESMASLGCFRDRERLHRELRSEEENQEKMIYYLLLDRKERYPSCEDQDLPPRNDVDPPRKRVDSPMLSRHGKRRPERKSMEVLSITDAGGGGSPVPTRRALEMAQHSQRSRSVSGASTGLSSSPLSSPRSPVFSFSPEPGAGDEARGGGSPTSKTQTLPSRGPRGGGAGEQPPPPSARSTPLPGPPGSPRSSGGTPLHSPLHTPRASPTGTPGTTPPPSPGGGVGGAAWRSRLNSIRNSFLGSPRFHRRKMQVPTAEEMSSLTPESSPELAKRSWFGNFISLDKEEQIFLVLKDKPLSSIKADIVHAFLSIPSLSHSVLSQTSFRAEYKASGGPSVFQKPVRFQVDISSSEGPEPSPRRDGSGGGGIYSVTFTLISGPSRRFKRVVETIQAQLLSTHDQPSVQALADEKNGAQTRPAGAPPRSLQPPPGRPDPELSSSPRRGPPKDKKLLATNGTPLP
UniProt P09619, sequence (whole entry, looked up): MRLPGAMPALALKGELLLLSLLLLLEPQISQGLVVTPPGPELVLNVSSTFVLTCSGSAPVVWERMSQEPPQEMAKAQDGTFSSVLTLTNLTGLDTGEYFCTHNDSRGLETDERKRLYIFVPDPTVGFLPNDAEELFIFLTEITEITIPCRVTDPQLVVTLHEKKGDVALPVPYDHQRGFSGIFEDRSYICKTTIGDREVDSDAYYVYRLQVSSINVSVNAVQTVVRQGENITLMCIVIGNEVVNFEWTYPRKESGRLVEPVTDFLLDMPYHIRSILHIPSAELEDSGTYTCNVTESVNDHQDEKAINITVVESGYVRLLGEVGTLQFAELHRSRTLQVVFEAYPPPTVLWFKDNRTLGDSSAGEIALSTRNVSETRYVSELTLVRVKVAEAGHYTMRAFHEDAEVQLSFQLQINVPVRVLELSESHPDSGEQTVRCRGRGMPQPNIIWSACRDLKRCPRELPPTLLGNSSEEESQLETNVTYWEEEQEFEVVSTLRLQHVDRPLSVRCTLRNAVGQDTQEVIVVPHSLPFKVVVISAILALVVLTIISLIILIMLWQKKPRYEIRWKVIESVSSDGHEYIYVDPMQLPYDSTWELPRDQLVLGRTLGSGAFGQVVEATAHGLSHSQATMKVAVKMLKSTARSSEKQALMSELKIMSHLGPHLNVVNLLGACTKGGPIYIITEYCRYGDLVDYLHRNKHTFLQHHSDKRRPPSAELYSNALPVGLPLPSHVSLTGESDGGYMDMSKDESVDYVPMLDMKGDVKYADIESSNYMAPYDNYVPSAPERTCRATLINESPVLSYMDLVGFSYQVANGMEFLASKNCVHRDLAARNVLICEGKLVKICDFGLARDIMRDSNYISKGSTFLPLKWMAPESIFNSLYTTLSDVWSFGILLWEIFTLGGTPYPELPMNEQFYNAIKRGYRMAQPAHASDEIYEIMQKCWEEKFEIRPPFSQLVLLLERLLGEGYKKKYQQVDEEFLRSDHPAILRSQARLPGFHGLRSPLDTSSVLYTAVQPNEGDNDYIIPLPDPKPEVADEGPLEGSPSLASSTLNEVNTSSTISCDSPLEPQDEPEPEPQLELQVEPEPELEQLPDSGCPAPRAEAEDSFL
UniProt P45983, sequence (whole entry, looked up): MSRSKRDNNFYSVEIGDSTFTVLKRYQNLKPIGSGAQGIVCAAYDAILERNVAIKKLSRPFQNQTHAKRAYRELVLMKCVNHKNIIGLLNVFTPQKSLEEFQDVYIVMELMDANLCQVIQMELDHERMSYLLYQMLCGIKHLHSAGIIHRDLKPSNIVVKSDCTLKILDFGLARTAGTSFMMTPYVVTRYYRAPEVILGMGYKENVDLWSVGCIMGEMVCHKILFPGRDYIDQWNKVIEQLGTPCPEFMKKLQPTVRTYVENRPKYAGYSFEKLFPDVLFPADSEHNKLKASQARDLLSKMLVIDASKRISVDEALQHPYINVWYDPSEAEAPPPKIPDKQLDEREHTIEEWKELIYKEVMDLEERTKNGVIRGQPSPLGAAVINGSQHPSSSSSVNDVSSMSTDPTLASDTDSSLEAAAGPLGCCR

Block 1 — read-out: enzyme activity; mode: inhibitor; concentration: 0.5 µM; reference: control
Target: Phosphorylase b kinase gamma catalytic chain, liver/testis isoform (PHKG2, Homo sapiens, UniProt P15735)
UniProt P15735, sequence (whole entry, looked up): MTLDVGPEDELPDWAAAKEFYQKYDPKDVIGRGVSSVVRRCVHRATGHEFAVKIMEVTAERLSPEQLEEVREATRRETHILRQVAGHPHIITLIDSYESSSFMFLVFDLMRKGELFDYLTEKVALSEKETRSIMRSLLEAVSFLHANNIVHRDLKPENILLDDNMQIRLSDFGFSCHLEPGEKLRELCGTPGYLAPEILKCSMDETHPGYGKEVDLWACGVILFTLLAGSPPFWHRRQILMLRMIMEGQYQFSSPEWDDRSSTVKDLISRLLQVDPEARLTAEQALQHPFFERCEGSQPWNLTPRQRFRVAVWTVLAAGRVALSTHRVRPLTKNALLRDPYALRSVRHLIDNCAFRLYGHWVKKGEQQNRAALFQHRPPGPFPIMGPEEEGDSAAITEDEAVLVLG
Structure (SMILES) | remaining activity [%]
Nc1[nH]nc2nc3ccccc3nc12 | 96.6
C#Cc1cccc(Nc2ncnc3cc(OCCOC)c(OCCOC)cc23)c1 | 97.9
O=C1NC(=O)C(c2cn(CCCn3ccnc3)c3ccccc23)=C1Nc1ccccc1 | 107
Nc1ccc2ncnc(NCCc3ccc(Oc4ccccc4)cc3)c2c1 | 98.7
NCCNc1ncc(C(N)=O)c(Nc2cccc(C(F)(F)F)c2)n1 | 78.3
O=c1c2ccccc2[nH]c(=S)n1CCN1CCC(=C(c2ccc(F)cc2)c2ccc(F)cc2)CC1 | 100
Cc1ccc(NC(=O)c2ccc(CN3CCN(C)CC3)cc2)cc1Nc1nc(-c2cccnc2)cs1 | 69.1
CO[C@H]1C[C@@H]2CC[C@@H](C)[C@@](O)(O2)C(=O)C(=O)N2CCCC[C@H]2C(=O)O[C@H]([C@H](C)C[C@@H]2CC[C@@H](O)[C@H](OC)C2)CC(=O)[C@H](C)/C=C(\C)[C@@H](O)[C@@H](OC)C(=O)[C@H](C)C[C@H](C)/C=C/C=C/C=C/1C | 108
Cn1c2ccccc2c2c3c(c4c5ccccc5n(CCC#N)c4c21)CNC3=O | 8.4
Cn1sc(=O)n(Cc2ccccc2)c1=O | 90.6
O=C(O)c1ccc2c3c1cccc3c(=O)n1c3ccccc3nc21 | 94.7
COc1ccc(CNC(=O)Nc2ncc([N+](=O)[O-])s2)cc1 | 105
Oc1ccc(-c2nc(-c3ccncc3)c(-c3ccc(F)cc3)[nH]2)cc1 | 94.3
COc1ccc(OC)c2c(=S)c3ccccc3[nH]c12 | 94.6
CC(C)[C@H](CO)Nc1nc(Nc2cc(N)cc(Cl)c2)c2ncn(C(C)C)c2n1 | 105

Block 2 — species: mouse; sample: microsomes or S9; concentration: 2 µM; time: 0.5 h
Structure (SMILES) | remaining compound [%]
CN(Cc1cnn(-c2ccccc2)c1)c1ccc(C#N)cn1 | 0.394
O=S1(=O)N=C(Nc2nccs2)c2ccccc21 | 75.2
Cc1ccc2[nH]c3nc(N/N=C/c4cc5c(cc4Cl)OCO5)nnc3c2c1 | 57
COc1nn(C)cc1C(=O)N1CCN(c2nccn3nc4c(c23)CCCC4)CC1 | 16.3
CC(C)C1(C)SC(NC2CC3CCC2C3)=NC1=O (stereo not drawn) | 65.8

Block 3 — cell line: HaCaT; concentration: 100 µM; time: 36 h
Structure (SMILES) | viability
O=C(O)CCCc1ccccc1 | 93.8%
CCCCCCCCCCCCCCCCOP(=O)([O-])OCC[N+](C)(C)C | 32.4%
CC[C@H](C)[C@H](N)C(=O)O | 89.1%
NS(=O)(=O)Cc1noc2ccccc12 | 92.6%
CN(c1nccc(=O)[nH]1)C1CCN(c2nc3ccccc3n2Cc2ccc(F)cc2)CC1 | 47.5%
Cc1c(Cl)cccc1Nc1ccccc1C(=O)O | 95%

Block 4 — read-out: cell-free assay; method: competition with immobilised ligand; concentration: 1 µM
SMILES: CCS(=O)(=O)c1cc2cc(C[C@@](O)(CC(C)(C)c3ccc(F)cc3C(N)=O)C(F)(F)F)[nH]c2cn1
target | remaining binding [%]
PDGFRB (Homo sapiens, UniProt P09619) | 100
MAP3K13 (Homo sapiens, UniProt O43283) | 82
MAPK1 (Homo sapiens, UniProt P28482) | 94
BRSK1 (Homo sapiens, UniProt Q8TDC3) | 73
EPHA5 (Homo sapiens, UniProt P54756) | 100
MAPK8 (Homo sapiens, UniProt P45983) | 98
Aurora kinase A (AURKA, Homo sapiens, UniProt O14965) | 88
COQ8A (Homo sapiens, UniProt Q8NI60) | 95
MAPK15 (Homo sapiens, UniProt Q8TD08) | 100
Ribosomal protein S6 kinase alpha-5, C-terminal kinase domain (RPS6KA5, Homo sapiens, UniProt O75582) | 69

A few entries again (block 4):
target | remaining binding [%]
MAPK1 (Homo sapiens, UniProt P28482) | 94
BRSK1 (Homo sapiens, UniProt Q8TDC3) | 73
EPHA5 (Homo sapiens, UniProt P54756) | 100
MAPK8 (Homo sapiens, UniProt P45983) | 98
Aurora kinase A (AURKA, Homo sapiens, UniProt O14965) | 88
COQ8A (Homo sapiens, UniProt Q8NI60) | 95
